Experimental data pooled from the literature.
Compare with care: the assays were run in different laboratories.
UniProt P08183, sequence (whole entry, looked up): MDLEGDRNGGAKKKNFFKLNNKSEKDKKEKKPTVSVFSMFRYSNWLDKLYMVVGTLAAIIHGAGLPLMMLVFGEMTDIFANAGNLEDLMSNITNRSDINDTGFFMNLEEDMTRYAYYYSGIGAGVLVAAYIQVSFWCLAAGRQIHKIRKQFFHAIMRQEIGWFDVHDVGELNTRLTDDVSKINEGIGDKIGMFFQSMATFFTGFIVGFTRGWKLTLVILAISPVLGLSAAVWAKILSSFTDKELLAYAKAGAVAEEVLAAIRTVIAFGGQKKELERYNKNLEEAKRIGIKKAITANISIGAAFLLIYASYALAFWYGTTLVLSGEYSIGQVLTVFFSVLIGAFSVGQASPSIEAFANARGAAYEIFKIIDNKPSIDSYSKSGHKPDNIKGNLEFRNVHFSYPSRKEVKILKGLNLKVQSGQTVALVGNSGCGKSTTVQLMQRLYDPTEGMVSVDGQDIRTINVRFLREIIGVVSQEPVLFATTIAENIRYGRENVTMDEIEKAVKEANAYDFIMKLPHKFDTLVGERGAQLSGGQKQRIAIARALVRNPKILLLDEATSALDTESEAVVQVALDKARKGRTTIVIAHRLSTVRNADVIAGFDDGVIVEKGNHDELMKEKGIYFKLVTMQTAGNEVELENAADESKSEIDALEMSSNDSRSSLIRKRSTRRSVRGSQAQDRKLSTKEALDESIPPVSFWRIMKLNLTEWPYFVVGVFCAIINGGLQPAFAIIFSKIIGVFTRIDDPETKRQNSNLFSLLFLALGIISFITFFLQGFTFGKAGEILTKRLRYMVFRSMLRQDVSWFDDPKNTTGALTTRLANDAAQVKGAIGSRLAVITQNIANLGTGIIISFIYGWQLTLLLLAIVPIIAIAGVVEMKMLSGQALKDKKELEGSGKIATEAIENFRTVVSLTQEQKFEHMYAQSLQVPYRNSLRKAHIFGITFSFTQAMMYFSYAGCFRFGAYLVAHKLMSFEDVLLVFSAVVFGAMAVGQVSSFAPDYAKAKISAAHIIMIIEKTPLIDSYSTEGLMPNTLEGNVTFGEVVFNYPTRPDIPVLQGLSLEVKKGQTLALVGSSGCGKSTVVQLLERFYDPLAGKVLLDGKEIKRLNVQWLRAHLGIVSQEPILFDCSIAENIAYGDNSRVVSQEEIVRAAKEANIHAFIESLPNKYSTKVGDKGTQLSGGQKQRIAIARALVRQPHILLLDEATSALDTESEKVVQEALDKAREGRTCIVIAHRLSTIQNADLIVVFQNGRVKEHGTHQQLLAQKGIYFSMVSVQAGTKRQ

CN(C)CCCn1cc(-c2ccccc2)c(-c2ccccc2)n1 gave a CC50 of 39.8 µM (African green monkey cells; 5 days).
Under “Papp A to B”, CC(C)CC(=O)OC[C@H]1O[C@@](C#N)(c2ccc3c(N)ncnn23)[C@H](O)[C@@H]1O is recorded as 1.46 ×10⁻⁶ cm/s (ABCB1 (Homo sapiens, UniProt P08183); Caco-2; 9 µM, with: verapamil 100 µM).
The CC50 of OC1(c2ccc(Cl)c(C(F)(F)F)c2)CCN(CCCC(c2ccc(F)cc2)c2ccc(F)cc2)CC1 is reported as 3.59 µM (African green monkey cells; 5 days).
O=c1ccc2ccccc2o1 gave a chance response of 0.01% (NHEK; cell count; concentration not given, 24 h, pH2AX and pH3 panel).
O=C(c1ccc(F)c(F)c1Nc1ccc(I)cc1F)N1CC(O)([C@@H]2CCCCN2)C1: “fatal adverse events” 0% (human patients; oral, dose not given, dose escalation, tablet).
The stability bias of CN1CC[C@]23c4c5ccc(O[C@@H]6O[C@H](C(=O)O)[C@@H](O)[C@H](O)[C@H]6O)c4O[C@H]2[C@@H](O)C=C[C@H]3[C@H]1C5 is reported as -12.8% (rat whole blood; 500 nM, 4 h, room temperature).
With CN1CCCC(CN2c3ccccc3Sc3ccccc32)C1 (stereo not drawn) the CC50 was 11.8 µM (African green monkey cells; 5 days).
With COC(=O)[C@@H]1[C@H]2CC[C@@H](C[C@@H]1O)N2C the stability bias was 3.76% (rat, whole blood; 1000 nM, 4 freeze-thaw cycles).
For O=C1c2c(O)c(=O)ccn2N([C@@H]2c3ccccc3SCc3c2ccc(F)c3F)[C@@H]2COCCN12, the plasma concentration was 11.1 ng/mL (BALB/c mice, plasma; oral, 15 mg/kg baloxavir marboxil, 10 h).
COC(=O)[C@H]1[C@@H](OC(=O)c2ccccc2)C[C@@H]2CC[C@H]1N2 has a stability bias of -0.88% (rat whole blood; 500 nM, 4 h, room temperature).
For Cc1cc(C(=O)NC(C)(C)COc2cccc3c2C(N)=NS(=O)(=O)N3)cc(C)n1, the revertant ratio was 1.1 (Salmonella typhimurium; Ames test, confirmatory; TA98; 100 µg/plate; baseline: solvent control).
With COC(=O)[C@H]1[C@H]2C[C@@H]3c4[nH]c5cc(OC)ccc5c4CCN3C[C@H]2C[C@@H](OC(=O)/C=C/c2cc(OC)c(OC)c(OC)c2)[C@@H]1OC the CC50 was 5.5 µM (African green monkey cells; 5 days).

Some of these lines once more:
O=c1ccc2ccccc2o1 gave a chance response of 0.01% (NHEK; cell count; concentration not given, 24 h, pH2AX and pH3 panel).
O=C(c1ccc(F)c(F)c1Nc1ccc(I)cc1F)N1CC(O)([C@@H]2CCCCN2)C1: “fatal adverse events” 0% (human patients; oral, dose not given, dose escalation, tablet).
